Measurements from different studies.
A part holds a random share of what one study measured. Substitutions count along the parent as printed.
UniProt Q05940, sequence (whole entry, looked up): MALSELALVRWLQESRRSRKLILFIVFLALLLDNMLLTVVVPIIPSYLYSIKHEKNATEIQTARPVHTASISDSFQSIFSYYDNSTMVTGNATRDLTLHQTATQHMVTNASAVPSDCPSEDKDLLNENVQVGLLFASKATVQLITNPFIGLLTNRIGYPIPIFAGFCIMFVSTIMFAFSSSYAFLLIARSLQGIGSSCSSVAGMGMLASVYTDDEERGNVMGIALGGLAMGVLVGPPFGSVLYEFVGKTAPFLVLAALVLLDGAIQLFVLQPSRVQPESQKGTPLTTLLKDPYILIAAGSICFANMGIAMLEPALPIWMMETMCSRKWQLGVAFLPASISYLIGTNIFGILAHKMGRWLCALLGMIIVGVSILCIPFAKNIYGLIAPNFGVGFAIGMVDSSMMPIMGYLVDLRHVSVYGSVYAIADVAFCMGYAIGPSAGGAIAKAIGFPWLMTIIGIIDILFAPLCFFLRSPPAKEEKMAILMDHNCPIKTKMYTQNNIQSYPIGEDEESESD
UniProt Q6P2M8, sequence (whole entry, looked up): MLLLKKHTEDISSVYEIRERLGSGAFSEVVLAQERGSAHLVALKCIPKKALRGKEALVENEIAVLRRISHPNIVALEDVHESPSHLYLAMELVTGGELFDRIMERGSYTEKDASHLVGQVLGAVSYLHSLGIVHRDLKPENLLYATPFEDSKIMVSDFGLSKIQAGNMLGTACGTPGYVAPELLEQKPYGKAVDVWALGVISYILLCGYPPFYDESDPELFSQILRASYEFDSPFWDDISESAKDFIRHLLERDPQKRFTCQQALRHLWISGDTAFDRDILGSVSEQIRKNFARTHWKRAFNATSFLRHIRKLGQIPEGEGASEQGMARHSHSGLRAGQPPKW

Sample 1 — effect on: ligand displacement; tested at: 10 µM
Target: D(1B) dopamine receptor (DRD5, Homo sapiens, UniProt P21918)
`C[C@H](c1ccnc(Nc2nc3ccc(-c4cc(N(C)C)ncn4)cc3[nH]2)c1)N1CCN(C(=O)CC(F)(F)F)CC1` has an inhibition of 10.2%.
With `Cc1c(N2CCNCC2)nc2ccc(Br)cc2c1C(=O)NC[C@H](CCC(=O)O)c1ccccc1Cl` the inhibition was 5.3%.
`C[C@@H](c1cccc(C#N)c1)n1cc(Cl)cc(C(N)=O)c1=N` gave an inhibition of 16.1%.

Sample 2 — target: CCNF, cyclin fold, Cln2 fusion (human); method: yeast growth competition, sequencing; sample: yeast; notes: strong parent motif; relative to: not given; reading: higher = stronger binding; starting sequence: viral docking peptide; TSVRRALFTGGSD
For `G10Q`, “normalised enrichment score” read 8.21.
`A6Q`: “normalised enrichment score” 8.32.
Under “normalised enrichment score”, `V3L` is recorded as 4.94.
`F8H`: “normalised enrichment score” 0.797.
`F8G`: “normalised enrichment score” 0.742.
Under “normalised enrichment score”, `R4Q` is recorded as 6.9.
Under “normalised enrichment score”, `R5I` is recorded as 1.24.
`R4P`: “normalised enrichment score” 3.86.

Sample 3 — target: inorganic phosphate, free oxyanion; method: microfluidic competitive inhibition; sample: in vitro, cell-free expressed; tested at: not given; reading: lower = stronger binding
Notes: derived from inhibition constants, unchanged parent 615000 nM
Starting sequence: PafA, mature enzyme, eGFP fusion (Elizabethkingia meningoseptica, UniProt Q9KJX5); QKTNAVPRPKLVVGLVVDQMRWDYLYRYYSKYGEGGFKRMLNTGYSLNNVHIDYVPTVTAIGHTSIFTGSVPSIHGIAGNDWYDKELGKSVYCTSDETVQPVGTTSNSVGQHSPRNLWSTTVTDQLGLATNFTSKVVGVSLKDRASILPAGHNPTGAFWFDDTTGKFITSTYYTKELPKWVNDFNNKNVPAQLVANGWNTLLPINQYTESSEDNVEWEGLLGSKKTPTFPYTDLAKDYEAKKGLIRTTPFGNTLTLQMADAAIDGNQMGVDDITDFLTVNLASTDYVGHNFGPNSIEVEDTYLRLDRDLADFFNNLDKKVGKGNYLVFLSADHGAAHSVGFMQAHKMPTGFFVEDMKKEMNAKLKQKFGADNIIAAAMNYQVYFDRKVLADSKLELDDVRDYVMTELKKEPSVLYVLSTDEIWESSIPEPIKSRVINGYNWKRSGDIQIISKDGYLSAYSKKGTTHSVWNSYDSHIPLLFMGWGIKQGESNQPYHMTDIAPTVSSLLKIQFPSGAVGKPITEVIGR
Under “phosphate dissociation constant”, `S106V` is recorded as 688 µM.
`S283V`: “phosphate dissociation constant” 687 µM.
Under “phosphate dissociation constant”, `M40G` is recorded as 687 µM.
For `K408G`, “phosphate dissociation constant” read 628 µM.
`S418G` — result for “phosphate dissociation constant”: 644 µM.
`Q487V` — result for “phosphate dissociation constant”: 631 µM.
`Y383G` — result for “phosphate dissociation constant”: 432 µM.
Under “phosphate dissociation constant”, `N205V` is recorded as 691 µM.

Mixed results
`O=C1NC(=O)c2c1c1c3ccccc3n3c1c1c2c2ccccc2n1[C@H]1CC[C@@H]3O1` gave a remaining activity of 50.5% (Calcium/calmodulin-dependent protein kinase type 1B (PNCK, Homo sapiens, UniProt Q6P2M8); enzyme activity, inhibitor; 0.5 µM; relative to: control).
For `mitragynine`, the IC50 was 21.5 µM (Synaptic vesicular amine transporter (SLC18A2, Homo sapiens, UniProt Q05940)).

For quick reference, copied from above (sample 3):
Under “phosphate dissociation constant”, `M40G` is recorded as 687 µM.
